Experimental data gathered from unrelated publications.
Compare with care: the assays were run in different laboratories.
Organism: Salmonella enterica

`CC[C@H](C)[C@H](NC(=O)[C@H](CCCCN)NC(=O)[C@H](CCCCN)NC(=O)[C@H](CC(C)C)NC(=O)[C@H](CCCCN)NC(=O)[C@H](CCC(=O)O)NC(=O)[C@H](CCCCN)NC(=O)[C@@H](NC(=O)[C@H](CCCCN)NC(=O)[C@H](CC(N)=O)NC(=O)[C@H](CCCNC(=N)N)NC(=O)[C@H](Cc1ccccc1)NC(=O)[C@H](CCCCN)NC(=O)[C@H](CCCNC(=N)N)NC(=O)[C@H](CC(C)C)NC(=O)[C@H](CCCNC(=N)N)NC(=O)[C@H](CCCCN)NC(=O)[C@H](CCCNC(=N)N)NC(=O)[C@H](CC(C)C)NC(=O)[C@@H](N)CCCNC(=N)N)[C@@H](C)CC)C(=O)NCC(=O)N[C@@H](CCC(N)=O)C(=O)N[C@@H](CCCCN)C(=O)N[C@H](C(=O)N[C@@H](CCC(N)=O)C(=O)NCC(=O)N[C@@H](Cc1ccccc1)C(=O)N[C@H](C(=O)N1CCC[C@H]1C(=O)N[C@@H](CCCCN)C(=O)N[C@@H](CC(C)C)C(=O)N[C@@H](CCC(N)=O)C(=O)N1CCC[C@H]1C(=O)N[C@@H](CO)C(=O)N[C@@H](CCCCN)C(=O)N[C@@H](CCC(N)=O)C(=O)N[C@@H](CO)C(=O)O)C(C)C)[C@@H](C)CC` gave a lethal concentration of 1.08 µM (inhibition zone; ATCC 14028; LB agar, overnight).
With `COc1c2c(cc3c1[C@@H]1Oc4c(ccc(O)c4CC=C(C)C)[C@@H]1CO3)OC(C)(C)C=C2` the MIC was 128 µg/mL (microbial growth; TYPHI).
`Cc1c2oc3c(C)ccc(C(=O)N[C@@H]4C(=O)N[C@H](C(C)C)C(=O)N5[C@H](C(=O)N(C)CC(=O)N(C)[C@@H](C(C)C)C(=O)O[C@@H]4C)[C@@H](O)C[C@@H]5C)c3nc-2c(C(=O)N[C@@H]2C(=O)N[C@H](C(C)C)C(=O)N3CC(=O)C[C@H]3C(=O)N(C)CC(=O)N(C)[C@@H](C)C(=O)O[C@@H]2CCl)c(N)c1=O` has an MIC of greater than 9.2 µg/mL (broth microdilution; ATCC 10708; 16 to 48 h).
With `CC[C@H](C)[C@H](NC(=O)[C@H](CCCCN)NC(=O)[C@H](CCCCN)NC(=O)[C@H](CC(C)C)NC(=O)[C@H](CCCCN)NC(=O)[C@H](CCC(=O)O)NC(=O)[C@H](CCCCN)NC(=O)[C@@H](NC(=O)[C@H](CCCCN)NC(=O)[C@H](CC(N)=O)NC(=O)[C@H](CCCNC(=N)N)NC(=O)[C@H](Cc1ccccc1)NC(=O)[C@H](CCCCN)NC(=O)[C@H](CCCNC(=N)N)NC(=O)[C@H](CC(C)C)NC(=O)[C@H](CCCNC(=N)N)NC(=O)[C@H](CCCCN)NC(=O)[C@H](CCCNC(=N)N)NC(=O)[C@H](CC(C)C)NC(=O)CN)[C@@H](C)CC)C(=O)NCC(=O)N[C@@H](CCC(N)=O)C(=O)N[C@@H](CCCCN)C(=O)N[C@H](C(=O)N[C@@H](CCC(N)=O)C(=O)NCC(=O)N[C@@H](Cc1ccccc1)C(=O)N[C@H](C(=O)N1CCC[C@H]1C(=O)N[C@@H](CCCCN)C(=O)N[C@@H](CC(C)C)C(=O)N[C@@H](C)C(=O)N1CCC[C@H]1C(=O)N[C@@H](CCCNC(=N)N)C(=O)N[C@H](C(=O)N[C@@H](CC(=O)O)C(=O)N[C@@H](Cc1ccc(O)cc1)C(=O)O)[C@@H](C)O)C(C)C)[C@@H](C)CC` the lethal concentration was 1.21 µM (inhibition zone; ATCC 14028; LB agar, overnight).
`CC(C)=CCc1c(O)ccc2c1O[C@H]1c3cc4c(cc3OC[C@@H]21)OC(C)(C)C=C4` has an MIC of 128 µg/mL (microbial growth; TYPHI).
`Cc1c2oc3c(C)ccc(C(=O)N[C@@H]4C(=O)N[C@H](C(C)C)C(=O)N5[C@H](C(=O)N(C)CC(=O)N(C)[C@@H](C(C)C)C(=O)O[C@@H]4C)[C@@H](O)C[C@@H]5C)c3nc-2c(C(=O)N[C@@H]2C(=O)N[C@H](C(C)C)C(=O)N3CC(=O)C[C@H]3C(=O)N(C)CC(=O)N(C)[C@@H](C)C(=O)O[C@@H]2C)c(N)c1=O` gave an MIC of greater than 9.45 µg/mL (broth microdilution; ATCC 10708; 16 to 48 h).
`CC(C)=CCc1cc2c(cc1O)OCc1c-2oc2c(CC=C(C)C)c(O)ccc12` has an MIC of 128 µg/mL (microbial growth; TYPHI).
With `N=C(N)NCCC[C@@H]1NC(=O)[C@H](CCCNC(=N)N)NC(=O)[C@H](CCCNC(=N)N)NC(=O)[C@H](CCCNC(=N)N)NC(=O)[C@H](Cc2c[nH]c3ccccc23)NC(=O)[C@H](CCCNC(=N)N)NC(=O)[C@H](CCCNC(=N)N)NC(=O)[C@@H](N)CCCCn2cc(nn2)C[C@@H](C(N)=O)NC1=O` the MIC was 125 µg/mL (24 h, 37 °C).
For `N=C(N)NCCC[C@H](NC(=O)[C@H](CS)NC(=O)[C@H](Cc1ccc(O)cc1)NC(=O)[C@H](Cc1c[nH]c2ccccc12)NC(=O)[C@H](CCCNC(=N)N)NC(=O)[C@H](Cc1c[nH]c2ccccc12)NC(=O)CNC(=O)[C@H](Cc1c[nH]cn1)NC(=O)CNC(=O)CN)C(N)=O`, the MIC was 6 µM.
`CC(=O)[O-].O.O.O.O.[Mn+2].[O-]c1ccc(Br)cc1C=NCCN1CCOCC1`: “inhibition zone diameter” 16 mm (serovar Typhi; 20 µL of 100 µM per disc).
The MIC of `COc1c(CC=C(C)C)c(O)cc2c1-c1oc3c(CC=C(C)C)c(O)ccc3c1CO2` is reported as 128 µg/mL (microbial growth; TYPHI).
`NCC(=O)NCC(=O)N[C@@H](Cc1c[nH]cn1)C(=O)O` has an MIC of greater than 476 µM.
With `N=C(N)NCCC[C@@H]1NC(=O)[C@H](CCCNC(=N)N)NC(=O)[C@H](CCCNC(=N)N)NC(=O)[C@H](CCCNC(=N)N)NC(=O)[C@H](Cc2c[nH]c3ccccc23)NC(=O)[C@H](CCCNC(=N)N)NC(=O)[C@H](CCCNC(=N)N)NC(=O)[C@@H](N)CCCn2cc(nn2)C[C@@H](C(N)=O)NC1=O` the MIC was 250 µg/mL (24 h, 37 °C).
For `COc1ccc2c(oc3c4ccc(O)cc4oc(=O)c23)c1CC=C(C)C`, the MIC was 128 µg/mL (microbial growth; TYPHI).
With `Oc1c(Cl)cc(Cl)c2cccnc12` the MIC was 1200 µM (microbial growth, agar dilution; ATCC10708 CHOLERAESUIS).

Some of these lines once more:
For `COc1ccc2c(oc3c4ccc(O)cc4oc(=O)c23)c1CC=C(C)C`, the MIC was 128 µg/mL (microbial growth; TYPHI).
